# Assay results pooled from the literature.
# Every numbered part comes from another study and shows a few of its results, in no order.

# Series 1
# Target: RING finger protein unkempt homolog, zinc fingers 1-6, GST-SBP tag (UNK, Homo sapiens, UniProt Q9C0B0, residues 30-357)
# UniProt Q9C0B0, sequence (30-357, looked up): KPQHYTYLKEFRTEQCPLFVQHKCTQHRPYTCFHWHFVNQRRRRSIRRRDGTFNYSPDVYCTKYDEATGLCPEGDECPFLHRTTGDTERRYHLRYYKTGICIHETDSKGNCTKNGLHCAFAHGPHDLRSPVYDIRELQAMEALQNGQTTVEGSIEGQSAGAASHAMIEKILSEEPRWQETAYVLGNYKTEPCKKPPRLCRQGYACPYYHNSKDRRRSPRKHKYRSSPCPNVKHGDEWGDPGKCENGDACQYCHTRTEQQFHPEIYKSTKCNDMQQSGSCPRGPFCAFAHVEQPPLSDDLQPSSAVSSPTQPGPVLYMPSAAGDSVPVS
# Method: RNA Bind-n-Seq
# Form: RNA
# Matrix: in vitro
# Concentration: not given
# Notes: RNA with constant flanks, human and mouse sites, ends assumed
# Relative to: input RNA pool
# Direction: higher = stronger binding
# Constant ends, left off below: GGGAGUUCUACAGUCCGACGAUC … CAACAGAGGAUUGAGCAUCA
Sequence,bound/input enrichment [ratio]
GUGAAGAAAGCUAAGAUCCGACAUUGAUAAAUGUGUGUUAUUGUUCCAUUUCUUGGGUUCUUCCUGGACUUGUCUGAGUCGACAAGAGUGCUGCACAUUGUUAAGGGGAAUCAACAGAUU,0.248
UAUGUAAGAAAACAAGUUGAGAAGAUUAAAAAUUCCAUGGAUGGGAAGAAUGUGGACACAGUUCUGAUGGAACUUGGAGUACGUUUUCAUCGGCUUAUUUAUGAACAUCUUCAACAAUAU,0.212
GCAGCGGCGGCAGCUGGUGCGGCUUCUGGGCUGCCGGGUCCAGUGGCACAGGGAUUGAAGGAGGCGUUGGUGGAUACCCUCACCGGAAUCCUGUCCCCGGUGCAGGAGGUGCGGGCGGCU,0.154
AUAAUUUUAUUGAGAUUCCAAACUUUUCGAUGAAAACAAUUUAACUCCUUUAUUGAUUAUCCUUAUCAAAAAAGAAAAAAAAAAAAGAAAAAGAAAGGAAGAAAUAAGGAAAGAAAGAAA,0.574
CCUGAAAAUGUCUAUAGUGUGCACUUCGAAAAAGAACAUAAAGCUGAGAAAGUCCCAGCAGUAGCCAACUACAUUAUGAAAAUACACAAUUUUACUAGCAAAUGCCUCUACUGUAAUCGC,8.36
AGUUUAAGCCUGACACACAGGCUUUGGUCCUCACUGAGCUGUCUCCAAGACUGGAACUACUUAGUGACUCGGCAAAUUUUCUGCCCCCCACCCCUCAUCAAAGCUGCUAGUUCAGAUGUU,4.06
GCUGAAUUAGAAAGAAUAAAGGUUGAAAAGGGACAGUUGGAAUCUACAUUAAGAGAGAAGUCGCAACAACUUGAGAGUCUCCAAGAAAUGAAAGUUAAUUUAGAGGAACAGUUAAAGAAA,2.97
AAGUUAGAGAUAAUGUCUACUGGAAAUUUUACCUUUGAGUCAAGUUUUGUGUCAGUGCUUUAGCAUUUUUGAGAAUGUGUUUGAUAUCACAGUGUUUGUAAAUUCGAUGAAAAUGUAUUU,1.19

# Series 2
# Target: RNA binding protein fox-1 homolog 2, RRM domain, GST-SBP tag (RBFOX2, Homo sapiens, UniProt O43251-10, residues 100-194)
# Method: RNA Bind-n-Seq
# Form: RNA
# Matrix: in vitro
# Concentration: 365 nM
# Notes: natural RNA segment, single round, ends assumed
# Relative to: no-protein control
# Direction: higher = stronger binding
# Constant ends, left off below: GGGAGUUCUACAGUCCGACGAUC … UGGAAUUCUCGGGUGCCAA
# Residues (chain): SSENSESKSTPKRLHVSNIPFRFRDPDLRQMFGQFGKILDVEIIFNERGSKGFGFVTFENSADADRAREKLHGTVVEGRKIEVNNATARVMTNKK
Sequence,RBNS enrichment (R)
CCCAUCUCCUCUCCCUUACUGUAGCAUUUCUGUCAUGUAAGAGGUGCUGACAGCCACUUCCGUGUCCCCUUUCUGCUCGAAGGAUGAGGAUACCUUGGGCAUCAGCUCCC,0.674
AGCCACACACAGCUUGCUGCUGUCGUUCUAGCCUUGCCAGUGCACUGUAGAUGCUGGCCUGUCACUCUAUACCUCUCGCUUUAGUUAACCGGCAUGGAUGUGACCGGAAU,1.18
CUUUCCUCCCAAGUCCACUUUACCCUUUCUCACGCAUCCUGGUGGUCCCUUGGGUACCUGGCCCUAGCCCUGCUUUCUUUCAUCCUGGUGAUCUUAAUUGUGGAGGUGCA,2
AGCCCACCACAGAGGCCACAGGCAGGCCCCCACUUCAGGCCCAAGGCCUGGGGCGGGGGGAACAGUCACUGGGUCUCAGAUUCUGAGACUGUUGUUUAGCUUACCUUUCU,0.135
CUCGGGACCCUCCCAGGCAGUUCCCACAGCUCUUGCCUCGGCUCACCAGGGUCACUUCCACUGUCAGGGGCCUGAGGGGGCAGCUGUGGCUGCAGGGCUGCUCUGGACUG,0.459
UGGGAGCUGUGGGUCUCUGGCACCUGCUGCUGAUGGACGGCUGCCUGCAGCCCUUCUGCGCCCUGAGGGCUCUGCCAUCACCCACAGACCAGGCAAUCCUGGCCUGGUAC,0.205
CACAUUGCCUUUGUUAUCUUUUUUUCGGAUUGAGCUCAUAACAGCCUGUGGCCCCUCACAUUCUCCAGGACCUGCCCUGCUAUGGGCCACUAACUGCUUGCUGGGGACAG,1.23
UCAGAUGAGGACCUCUUGGAAUAGCUCUUCAGAGGAGCUGGACCCAGCAUGGAUGGUGGAACCACAGUACCUCUUACACUCCCUGUGGCUCCAACUUCAGGAAAUAAAUU,2.23

# Series 3
# Target: Centromere-binding protein 1, full length, N-terminal tag (CBF1, Saccharomyces cerevisiae, UniProt P17106, residues 1-351)
# UniProt P17106, sequence (whole entry, looked up): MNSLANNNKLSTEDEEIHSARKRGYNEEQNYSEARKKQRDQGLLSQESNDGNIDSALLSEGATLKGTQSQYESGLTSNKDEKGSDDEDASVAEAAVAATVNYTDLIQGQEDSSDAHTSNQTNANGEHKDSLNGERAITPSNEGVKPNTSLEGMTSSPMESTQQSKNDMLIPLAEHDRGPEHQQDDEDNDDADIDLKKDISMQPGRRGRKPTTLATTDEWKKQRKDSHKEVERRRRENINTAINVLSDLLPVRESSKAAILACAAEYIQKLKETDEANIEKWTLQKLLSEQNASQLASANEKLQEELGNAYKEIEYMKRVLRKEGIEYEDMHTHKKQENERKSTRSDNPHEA
# Method: protein-binding microarray
# Form: double-stranded DNA, one strand shown
# Matrix: in vitro
# Concentration: 0.8 µM
# Notes: whole 60-bp probe, no competitor
# Direction: higher = stronger binding
# Constant ends, left off below: … GTCTTGATTCGCTTGACGCTGCTG
Sequence,fluorescence intensity [a.u.]
CTAGAAAATCGCTCCCGCGTGTCTACTGGACTTTTC,536
CTAGCTATACCGGTGATCACAAGACGTAGTTACTTC,1160
GAAGATGTATCTCCCCGCGTGAAGTCACTAGAATAG,543
GAATGCTGTTGGGAAAACGTGCCTTCTAATCTCTAG,793
GAAAATGCAATTAGTCAGGTGGAATCTAATATCTAG,928
CTATTAATAGTGATACATGTGCTCAATTACGGTTTC,1320
CTATGTCATTCACGACATGTGAACAAATAAAAATTC,1570
CTATATTTATGGCATCACGATTATTCTCACCAGTTC,625
CCTAACTACTATACTATCGTGGGATAGCTTCGTACA,502
GAATGCTGCCGCTTCAGCGTGAATGACGCAGGTTAG,513
GAACCTTATTTTTATCCCGTGTTATATTTAATCTAG,1080
CTATGAATATACCGTCATGCCATTTGGCTTAGTTTC,529
CTAAATAGAAATAATCATATGATGATATAGAAATTC,718
GAAACGCGCTGCAGGAACGTGACTTCCAAAAAATAG,3350
CCTAACTACTATACATGCGTGAGATAGCTTCGTACA,521
CTACTCTTTACACCGTACGTGATAATACACTAATTC,605
GAAGAAGAAAAAGAACACGTTGAAAACGAACATTAG,593
CTAGTTTGGCTTGCTCACATGGGGCTACACGTATTC,623
CTAGTCCGGCATCACGTGGTTATGATGTAGTATTTC,10800

# Series 4
# Target: Fragile X messenger ribonucleoprotein 1, C-terminal low-complexity region (Fmr1, Mus musculus, UniProt P35922)
# Method: RNA Bind-n-Seq
# Form: RNA
# Matrix: in vitro
# Concentration: 200 nM
# Notes: whole 134-nt RNA, ends assumed
# Together with: 150 mM KCl
# Relative to: input library
# Direction: higher = stronger binding
# Constant ends, left off below: GGGAGUUCUACAGUCCGACGAUC … UGGAAUUCUCGGGUGUCAAGG
Sequence,log2 enrichment
ACCAUGCAGGUGUGCAUCUUUGGGAAGUGGGGCAAGGGGGGGAUAGGGAGGGGGGUAACACUUUGGGAACAGGUGGUCCCAGGUCGUUUC,0.707
UACCUUUAGAGGAGGAUCUGAUGGAUAUGGCAGUGGACGUGGAUUUGGGGAUGGCUAUAAUGGGUAUGGAGGAGGACCUGGAGGUGGCAA,0.307
UGGUUCUGGCAUUUAUGACCCUUGUGAAAAAGAAGCCACUGAUGCUAUUGGGCAUCUAGACAGACAGCAACGGGAAGAUAUCACACAGAG,-0.33
GUCCUGUGCUACACAUCGUAUGUACCGAAUCGGGGUUUGGGGAAAGGGGAAAAAGGGGAAAGUAUUAUGUUACGCCGUUCGGAUCUGCAC,0.307
UGGGAGGUGGAUUUUGUUUAUUUUUUUAGAUCAUUUCCAGGGGUGGGAAUUUUUUUUUAAUAUGUGUCAUGAAUAAAGUUGUUUUUGAAA,-0.0388
GUCCUGUGCUACACAUCGUAUGUACCGAAUCGGGUUUUUGGGGUUUUUGGGUUUUUGGAAAGUAUUAUGUUACGCCGUUCGGAUCUGCAC,0.118
UUCUUUGCCCAACGGGGCCGUGGAUACCUGCCUUUUAAUUCUUUUUUAUUCGCCCAUCGGGGCCGCGGAUACCUGCUUUUUAUUUUUUUU,0.271
CCAGAGCCAGAGAGCUUGGGCCCUGGGACGCCUGGGUUCCCCGAGCAGGAGGAAGACGAACUUCACCGCACCCUGGGCGUGGAGCGGUUU,-0.898
GCAGGAAGUAAAAACAAAUGGAAAUGCUUCGGAUAGUGGCAGGGGUGGGGGUUGCUAAGGAAAGGGUGGGAUAGGAGUGGGUAAAGAGUU,0.257

# Excerpt of the above (series 3):
Sequence,fluorescence intensity [a.u.]
CCTAACTACTATACTATCGTGGGATAGCTTCGTACA,502
GAATGCTGCCGCTTCAGCGTGAATGACGCAGGTTAG,513
GAACCTTATTTTTATCCCGTGTTATATTTAATCTAG,1080
CTATGAATATACCGTCATGCCATTTGGCTTAGTTTC,529
CTAAATAGAAATAATCATATGATGATATAGAAATTC,718
